Measurements from different studies.
Compare with care: the assays were run in different laboratories. Numbers after ± are the reported error.

COc1ccc2c(c1)CN(C(=O)CCN1CCC(Cc3ccccc3)CC1)CC[S@@+]2[O-] gave a fu of 0.349 (human plasma; 10000 ng/mL).
The Nasopharyngitis incidence of C[C@@H]1COCCN1c1cc(C2([S@](C)(=N)=O)CC2)nc(-c2cc[nH]c3nccc2-3)n1 is reported as 0% (Japanese advanced solid tumour patients; oral, 160 mg twice daily, CTCAE grade ≥3).
Nc1ccc2c(c1)S(=O)(=O)C=C2 — result for “conversion to thiol conjugate”: 30 to 40% (PBS; 50 µM, 24 h, pH 7.4, 37 °C, together with: equimolar thiol).
Under “unbound plasma trough concentration”, CCn1ncc2c1-c1cnc(N)c(c1)O[C@H](C)c1cc(F)ccc1-c1nn(C)nc1C2 is recorded as 100 ± 34 nM (female athymic nude mice, sample B PDX; oral, 15 mg/kg twice daily for 5.5 days, 12 h).
With CNC(=O)c1ccc(-c2cnc3ncc(Cc4ccc5ncccc5c4)n3n2)cc1F the freeze-thaw stability was 5 cycles (human plasma; stored at -70 °C).
CCOc1c([C@H](C)n2nc(C)c3c(N)ncnc32)cc(Cl)c(F)c1[C@@H]1CNC(=O)C1 — result for “share of ECG observations”: 99.1% (measured: ΔQTcF ≤ 30 ms; previously treated B-cell malignancy; oral, 30 mg once daily, baseline QTcF ≤450 ms).
With CN(C)C/C=C/C(=O)Nc1cc2c(Nc3ccc(F)c(Cl)c3)ncnc2cc1O[C@H]1CCOC1 the efflux ratio was 1 ± 0.2 (EpiIntestinal tissue model; 300 µM, 3 h, pH 7.4).
CCc1cc(C(=O)NC)c2nccc(N3CCc4c(cc(Cn5ccnc5)cc4-c4cn(C)nc4C(F)(F)F)C3=O)c2c1 — result for “serum RDW change”: -8.07% (Sprague Dawley rats; oral, 100 mg/kg twice daily, 7 days; baseline: vehicle).
For NC1(C(=O)N[C@@H](CCO)c2ccc(Cl)cc2)CCN(c2nc[nH]c3nccc2-3)CC1, “likelihood of grade >=2 diarrhea” read 39.8% (human patients aged >=sample A years; 400 mg).
CC(C)(C)c1ccc([C@H]2COC[C@@H](c3ccc(F)cc3)N2)cc1 has a logD of greater than 4.7 (shake-flask, 1-octanol/buffer; pH 7.4).
For C=CCn1c(=O)c2cnc(Nc3ccc(N4CCN(C)CC4)cc3)nc2n1-c1ccc2c(n1)[C@@](O)(CC)CC2, the AUC(0-24) was 23600 ng·h/mL (A-427, female NOD/SCID mouse xenograft, plasma; oral, 80 mg/kg once daily).
For CN1CCN(C(=O)c2ccc3cc(CCNc4ncnc5ccc(C#N)cc45)ccc3c2)CC1, the CLint was 19.8 µL/min/10⁶ cells (human hepatocytes, female; 2 µM, 37 °C).
Cc1cc(C)c(CNC(=O)c2cc(Cl)c3c(c2C)O[C@@](C)([C@H]2CC[C@H](N(C)C)CC2)O3)c(=O)[nH]1: “AST increased grade ≥3” 4.2% (human relapsed/refractory NHL; oral, 200 mg once daily, onset after cycle 1 day 1).
CN(C)C/C=C/C(=O)Nc1cc2c(Nc3ccc(F)c(Cl)c3)ncnc2cc1O[C@H]1CCOC1 — result for “cysteine adduct formation”: 95% (PBS; 100 µM, 23 h, pH 8, 37 °C, together with: cysteine 10 mM).
The brain concentration of COc1cc2c(Nc3ccc(Cl)c(Cl)c3F)ncnc2cc1OC[C@@H]1C[C@@H]2CN(C)C[C@@H]2C1 is reported as 30600 ng/g (FVB Mdr1a/b(-/-)Bcrp1(-/-) triple knockout mice, both sexes, brain; intraperitoneal infusion (osmotic pump), dose not given, 48 h).
With c1ccc2c(c1)ccc1ccccc12 the log K(PDMS-water) was 3.79 ± 0.01 (fresh water; 12 (unit not given), 20 °C, S100 sampler, 100 µm).
CC[C@H](C)C(=O)O[C@H]1C[C@@H](C)C=C2C=C[C@H](C)[C@H](CC[C@@H]3C[C@@H](O)CC(=O)O3)[C@H]21 has a CLint of 3.44 µL/min/mg (EpiIntestinal microtissues; 10 µM, pH 6.5).
The logD of Clc1cc(Cl)cc([C@@H]2COC[C@]3(CCOc4ccccc43)N2)c1 is reported as greater than 4.7 (shake-flask, 1-octanol/buffer; pH 7.4).
CN(CCC(=O)O)C(=O)c1ccc2c(c1)CC[C@@H]1[C@@H]2CC[C@]2(C)C(c3cncc(F)c3)=CC[C@@H]12 gave a direct bilirubin of 0.345 mg/dL (premenopausal women with endometriosis pain, serum; 60 mg twice daily, end of treatment, completers, mean).
NS(=O)(=O)c1ccc(NN=C2C(=O)Nc3ccc(C(=O)O)cc32)cc1 has a logD of -0.57 (octanol/buffer; 67 µM, pH 7.4).
For C[C@@]1(c2cc(NC(=O)c3ccc(C#N)cn3)ccc2F)C=CSC(N)=N1, the dose-normalised AUC(0-last) was 95.5 ng·h/mL (elderly humans, both sexes, plasma; oral, 150 mg single dose).
CNC(=O)c1ccccc1Nc1cc(Nc2ccc(N3CCOCC3)cc2OC)ncc1C(F)(F)F gave a solubility of greater than 1000 µg/mL (0.1% w/v Soluplus buffer; 4 h, pH 4.5, 37 °C).
For O=c1cc(-c2ccc(O)cc2)oc2c([C@@H]3OC[C@H](O)[C@H](O)[C@H]3O)c(O)c([C@@H]3O[C@H](CO)[C@@H](O)[C@H](O)[C@H]3O)c(O)c12, the tissue concentration was 0.28 ng/g (UHPLC-MS/MS; C57BL/6J mouse, heart; oral, dose not given).
COc1ccc2c(C)nc(Nc3nc(C)cc(O)n3)nc2c1 has a logD of 2.51 (octanol/buffer; pH 7.4).
COc1cc(C(=O)N2CCC3(CC2)CC(=O)c2c(cnn2C(C)C)C3)cc(-c2ccc(C(=O)O)cc2)n1 — result for “LDL cholesterol change from baseline”: -12% (direct measurement; human, fasting serum; 100 mg once daily, day 13, adjusted geometric mean).
For C/C=C/C[C@@H](C)C(=O)[C@H]1C(=O)N[C@@H](C(C)C)C(=O)N(C)CC(=O)N(C)[C@@H](CC(C)C)C(=O)N[C@@H](C(C)C)C(=O)N(C)[C@@H](CC(C)C)C(=O)N[C@@H](C)C(=O)N[C@H](C)C(=O)N(C)[C@@H](CC(C)C)C(=O)N(C)[C@@H](CC(C)C)C(=O)N(C)[C@@H](C(C)C)C(=O)N1C, “free plasma concentration” read 71.1 ng/mL (Sprague Dawley rat, plasma; intravenous infusion, 0.29 mg/h/kg, 4 h, 4.5 h constant infusion).
Cc1cccc([C@H]2N[C@@H](c3ccc(-c4ccccn4)cc3)CO[C@@H]2C)c1 has a logD of greater than 4.7 (shake-flask, 1-octanol/buffer; pH 7.4).
For NC(=O)N1c2ccccc2C=Cc2ccccc21, “adverse events incidence” read 7% (measured: GGT increased; human male; oral, dose not given, CTCAE on-treatment AEs).
For Cc1ccc(C(=O)N(CCCN)C(c2nc3snc(C)c3c(=O)n2Cc2ccccc2)C(C)C)cc1 (stereo not shown), “patients with adverse event” read 0% (mucosal inflammation grade ≥3 (CTCAE); human patients; intravenous, 13 mg/day).
The Km of C=CC(=O)Nc1cc(Nc2nccc(-c3cn(C4CC4)c4ccccc34)n2)c(OC)cc1N(C)CCN(C)C is reported as 5.25 µM (metabolism, substrate; rat liver microsomes; 40 min, 37 °C, together with: NADPH 1 mM).
C=CC(=O)NC1CCN(c2ncc3ncnc(Nc4ccc(Oc5ccc6c(c5)ncn6C)c(C)c4)c3n2)CC1 — result for “subjects with drug-related adverse events”: 14% (healthy male volunteers; intravenous then oral, dose not given, 1 week, oral 2 h after infusion).
[O]=[Co].[O]=[Co][O][Co]=[O] gave a cobalt concentration of 572 µg/L (rat, female, urine, 24-h collection; oral gavage, single, 300 mg/kg (220 mg Co/kg), day 2, vehicle 0.5% HPMC).
For CC[C@H](C)CCCCC(=O)N[C@@H](CCN)C(=O)N[C@H](C(=O)N[C@@H](CCN)C(=O)N[C@H]1CCNC(=O)[C@H]([C@@H](C)O)NC(=O)[C@H](CCN)NC(=O)[C@H](CCN)NC(=O)[C@H](CC(C)C)NC(=O)[C@@H](Cc2ccccc2)NC(=O)[C@H](CCN)NC1=O)[C@@H](C)O, “cumulative urinary excretion” read 0.884 mg (LC-MS/MS; normal renal function subjects, urine; IV, 0.75 mg/kg, 0-6 h, arithmetic mean).
CC(C)(C(=O)N1CCOc2c(C#N)cncc2C1)C(F)F — result for “subjects with cardiac disorder TEAE”: 0% (human, both sexes; oral, 30 mg single dose).
Cc1nc2ccc(OCc3ccc(C(F)(F)F)cc3)cc2[nH]1 has a tissue concentration of 361 ± 77.2 ng/g (Balb/c mouse, male, lungs; intravenous, 1 mg/kg, 3 h).
Under “systolic blood pressure change”, CCN1/C(=C/C(C)=O)Sc2ccc(F)cc21 is recorded as 111 ± 9.7% (cynomolgus monkey; oral, 10 mg/kg, 4 h post-dose; baseline: pre-dose).
CCOC(=O)N1C[C@@H](c2ccccc2O)N[C@@H](c2ccc(C(C)(C)C)cc2)C1 has a logD of greater than 4.7 (shake-flask, 1-octanol/buffer; pH 7.4).
Under “chromatographic hydrophobicity index”, CC(C)c1c(C(=O)Nc2ccccc2)c(-c2ccccc2)c(-c2ccc(F)cc2)n1CC[C@@H]1C[C@@H](O)CC(=O)O1 is recorded as 106 (reverse phase LC, C18; acetonitrile gradient, 0.1% formic acid; converted from retention time; baseline: Valko CHI standards).
C[C@@H](NC(=O)N1C(=O)[C@H](Cc2ccnc(N)c2)[C@H]1C(=O)O)C1CCCCC1 has a CL of 5.55 mL/min/kg (UPLC-MS/MS; healthy adult Chinese volunteers, plasma; continuous intravenous infusion, 0.6 mg/kg/h, day 6 of 5-day infusion, mean).
The logD of CCOC(=O)N1C[C@@H](c2ccc(C(C)=O)cc2)N[C@@H](C(C)(C)C)C1 is reported as greater than 4.7 (shake-flask, 1-octanol/buffer; pH 7.4).
The logD of O=C(Cn1c(NCCO)nc2ccccc21)c1cccc([N+](=O)[O-])c1 is reported as 1.75 (octanol/buffer; pH 7.4).
For CCNCCCn1c2c(c3cc(OC)c(OC)cc3c1=O)C(=O)c1cc3c(nc1-2)OCO3, the oral bioavailability was 14.2% (male CD1 mouse; oral, 10 mg/kg; baseline: 1 mg/kg intravenous).
For C[C@@H](c1ncncc1F)[C@](O)(Cn1cncn1)c1ccc(F)cc1F, “grade 2 TEAE” read 0% (human; oral, 200 mg, drug interaction trial).
O=C(O)CN1CCCN2CCN(Cc3ccccc3)CCCN(CC1)Cc1cccc(n1)C2 has an intact complex of 98% (64Cu complex in rat plasma; 24 h, 37 °C).
For C=CC(=O)N(C)CCOc1c(N)ncnc1-c1cc(F)cc(NC(=O)c2ccc(C3CC3)cc2F)c1C, the AUC was 624 ng·h/mL (human, whole blood; oral, 200 mg single dose).
NC1(C(=O)N[C@@H](CCO)c2ccc(Cl)cc2)CCN(c2nc[nH]c3nccc2-3)CC1 — result for “incidence of SIRS”: 20% (metastatic CRPC patients; 480 mg b.i.d., any grade, treatment-related, together with: enzalutamide 160 mg daily).
CC(C)n1c(Nc2cccnc2)nc2cnc(Nc3ccc(N4CCN(C)CC4)cc3)nc21: “subjects with TEAE” 19% (measured: gastrointestinal disorders (SOC); healthy human, male; oral, dose not given, CTCAE grade 1-3).
For Cc1ccc([C@@H]2O[C@H](CO)[C@@H](O)[C@H](O)[C@H]2O)cc1Cc1ccc(-c2ccc(F)cc2)s1, “urinary chloride excretion change” read 18.2 mEq (Japanese type 2 diabetes patients; 100 mg, day 5, 24 h urine collection; baseline: baseline).
With COCCOc1cnc2ccn([C@H](C)c3nnc4c(F)cc(-c5cnn(C)c5)cn34)c(=O)c2c1 the Ctrough was 220 ng/mL (patients, plasma; oral, 400 mg once daily, day 1 24 h postdose).
COc1ncc(-c2nc3c(n2C(C)C)[C@H](c2ccc(Cl)cc2)N(c2cc(Cl)cn(C)c2=O)C3=O)c(OC)n1 has a median half-life of 22.6 h (human patients, plasma; oral, 25 mg, high-dose arm, cycle 2 day 1).
For CN(C)CCNS(=O)(=O)c1ccc(N/C=C2\C(=O)Nc3ccccc32)cc1, the logD was 1.67 (octanol/buffer; 67 µM, pH 7.4).
Cc1cc(-c2nccc3c2ccn3CC(=O)Nc2ccc(-c3cnccn3)cn2)ccn1: “skin disorder TEAEs” 11.1% (healthy human volunteers; oral, 15 mg once daily, 14 days, multiple ascending dose).
CC[C@@H]([C@H](C)O)n1ncn(-c2ccc(N3CCN(c4ccc(OC[C@@H]5CO[C@@](Cn6cncn6)(c6ccc(F)cc6F)C5)cc4)CC3)cc2)c1=O — result for “stability relative error”: -12.4% (rat plasma; 800 ng/mL, 21 days, -80 °C; baseline: nominal concentration).
Under “adverse event incidence”, O=C(COc1ccc(Cl)cc1)NC12CC(c3nnc([C@H]4C[C@@H](OC(F)(F)F)C4)o3)(C1)C2 is recorded as 26.5% (measured: Fatigue; human; oral, dose not given, 14 days).
For N#Cc1ccc2c(c1)[C@H]1CCCN(C(=O)c3ccc4[nH]cnc4c3)[C@H]1C2, “cortisol level change” read -218 nmol/L (human; 160 mg, end of trial; baseline: baseline).
